Measured values gathered from unrelated publications.
Protocols differ between the studies behind these lines. Numbers after ± are the reported error.
Cell line: HeLa

C#CCN(CC(=O)O[C@H]1[C@H](C)O[C@@H](O[C@H]2[C@H](N(C)C)[C@@H](O)[C@H](O[C@H]3[C@@H](CC=O)C[C@@H](C)[C@@H](O[C@H]4CC[C@H](N(C)C)[C@@H](C)O4)/C=C/C=C/C[C@@H](C)OC(=O)C[C@@H](O)[C@@H]3OC)O[C@@H]2C)C[C@@]1(C)O)C(=O)c1ccc(C(C)(C)C)cc1 — IC50 (cell growth or viability, CCK-8; 72 h): 1.76 µM
COc1ccc(COC[C@](O)(CNCc2ccc(F)cc2)[C@@H]2CC[C@@H](C)C[C@H]2OCc2ccc(OC)cc2)cc1 — IC50 (cell growth or viability, MTT; 72 h): 3.6 µM
FC(F)(F)c1ccc(CNc2nc(NCc3ccccc3)c3ccccc3n2)cc1 — IC50 (ODD-Luc degradation; p97-independent substrate): 15 ± 3 µM
O=[N+]([O-])c1ccc(NC2=N[N+](=Cc3cccs3)[Pt-]([Cl])([Cl])[S]2)cc1 — IC50 (cell growth or viability): 46 µM
CC(=O)[C@@H]1CCCN1C(=O)[C@@H]1CCCN1C(=O)[C@H](Cc1ccccc1)NC(=O)OC(C)(C)C — IC50 (cell growth or viability, SRB): 6 µM
COc1cc(CN2CCN(c3ccccc3F)CC2)c2cc3[n+](cc2c1O)CCc1cc2c(cc1-3)OCO2 — IC50 (cell growth or viability, SRB; 48 h): 5.88 µg/mL
CCCCCCCCCCCCCCCCOc1c(O)cc(C(=O)O[C@@H]2Cc3c(O)cc(O)cc3O[C@@H]2c2cc(O)c(O)c(O)c2)cc1O — IC50 (cell growth or viability, CCK-8; 24 h): 105 µM
CN(C)CCO/N=C1/C=C2CCC3C(CC[C@]4(C)/C(=C/c5ccccn5)CCC34)[C@@]2(C)CC1 (some centres unmarked) — IC50 (cell growth or viability, MTT; 72 h): > 100 µM
C[C@@H]1CC[C@@H]([C@@](C)(O)Cn2ccnc2)[C@H](OCc2ccccc2)C1 — IC50 (cell growth or viability, MTT; 72 h): 23.2 µM
O=C1/C(=C(\O)CCc2ccccc2)C(=O)[C@@]2(C(=O)OC3CCCCC3)CS[C@H](c3ccccc3)N12 — IC50 (cell growth or viability, resazurin): 7.81 µg/mL
C=C1C(=O)OC2C=C(C)CCC=C(C(=O)OC(C)C(C)(O)C(=O)OC3C(OC(C)=O)C(C(=O)OC)=CCCC(C)=CC4OC(=O)C(=C)C43)CC(OC(=O)C(C)=CC)C12 (centres unmarked) — IC50 (cell growth or viability; 48 h): 1.69 µM
Nc1ccn(CC(=O)N[C@@H](Cc2ccccc2)C(=O)N[C@@H](Cc2ccccc2)C(=O)O)c(=O)n1 — IC50: > 500 µM
CN(Cc1ccccc1)C(=O)Cc1ccc(-c2ccc(OCCN3CCOCC3)cc2)cn1 — IC50 (cell growth or viability, CCK-8; 48 h): > 1 µM
O=c1ccn([C@@H]2O[C@H](CSSc3ccccn3)[C@@H](O)[C@H](F)[C@H]2O)c(=O)[nH]1 — IC50 (cell growth or viability): 8.8 µM
Cc1ccc(CNC(=O)Cc2ccc(-c3ccc(OCCN4CCOCC4)cc3)cn2)cc1 — IC50 (cell growth or viability, CCK-8; 48 h): 0.027 µM
Cc1cc(C#N)cc(C)c1Oc1cc(Nc2ccc(C#N)cc2)nc2cnccc12 — IC50 (48 h): > 128 µM
COC(=O)[C@@H]1CCCN1C(=O)[C@H](C)N(C)C(=O)OC(C)(C)C — IC50 (cell growth or viability, SRB): 60 µM
CC(=O)OC[C@H]1O[C@@H](NC(=O)/C=C/c2ccc(C(C)C)cc2)[C@H](OC(C)=O)[C@@H](OC(C)=O)[C@@H]1OC(C)=O — IC50 (cell growth or viability; 96 h): 124 µM
N#Cc1c(-c2cccs2)cc(-c2cccc3ccccc23)nc1Nc1ccc(Nc2nc(-c3cccc4ccccc34)cc(-c3cccs3)c2C#N)cc1 — IC50 (cell growth or viability, MTT; 72 h): 0.244 µM
CC1=CC(C)=[O+][Pt-2]([NH3+])([NH3+])[O]1.CC1=CC(C)=[O+][Pt-2]([NH3+])([NH3+])[O]1.O=S(=O)([O-])[O-] (centres unmarked) — IC50 (cell growth or viability, MTT): 32 µM
[Cl][Cu][Cl].c1ccc(-c2nnc(-c3ccc4c(c3)OCO4)[nH]2)nc1 — IC50 (cell growth or viability, MTT; 24 h): 5.23 µM
CC(C)(C(=O)O)C1(O)c2ccccc2-c2ccccc21 — IC50 (cell growth or viability; 72 h): 99.1 µM
Oc1ccc2c(c1)OCc1c-2oc2cc3c(cc12)OCO3 — IC50 (cell growth or viability, MTT; 72 h): 22.5 µM
CC(=O)OC[C@H]1O[C@@H](NC(=O)COc2ccc(-c3ccccc3)cc2)[C@H](OC(C)=O)[C@@H](OC(C)=O)[C@@H]1OC(C)=O — IC50 (cell growth or viability; 96 h): ≥ 250 µM
CO[C@@H]1[C@@H](O[C@@H]2O[C@H](C)[C@@H](O[C@H]3C[C@@](C)(O)[C@@H](OC(=O)Cc4ccc(C(C)(C)C)cc4)[C@H](C)O3)[C@H](N(C)C)[C@H]2O)[C@@H](CC=O)C[C@@H](C)[C@@H](O[C@H]2CC[C@H](N(C)C)[C@@H](C)O2)/C=C/C=C/C[C@@H](C)OC(=O)C[C@H]1O — IC50 (cell growth or viability, CCK-8; 72 h): 2.05 µM
Cc1cc(C#N)cc(C)c1Oc1cc(Nc2ccc(C#N)cn2)nc2ccncc12 — IC50 (48 h): > 127 µM
CCCCNC(=O)O[C@H]1[C@H](C)O[C@@H](O[C@H]2[C@H](N(C)C)[C@@H](O)[C@H](O[C@H]3[C@@H](CC=O)C[C@@H](C)[C@@H](O[C@H]4CC[C@H](N(C)C)[C@@H](C)O4)/C=C/C=C/C[C@@H](C)OC(=O)C[C@@H](O)[C@@H]3OC)O[C@@H]2C)C[C@@]1(C)O — IC50 (cell growth or viability, CCK-8; 72 h): > 50 µM
COc1cc2c(cc1OCCCOc1no[n+]([O-])c1S(=O)(=O)c1ccccc1)CCC1C2CCC2(C)C(O)CCC12 (centres unmarked) — IC50 (cell growth or viability, MTT; 48 h): 2.65 µM
CCCCCCCCOc1c(O)cc(C(=O)O[C@@H]2Cc3c(O)cc(O)cc3O[C@@H]2c2cc(O)c(O)c(O)c2)cc1O — IC50 (cell growth or viability, CCK-8; 24 h): 88.2 µM
C[C@@H]1CC[C@@H]([C@](O)(CNCc2ccc(F)cc2)COCc2ccccc2)[C@H](OCc2ccccc2)C1 — IC50 (cell growth or viability, MTT; 72 h): 7.2 µM
[Cl][Pd-]1([Cl])[S]C(Nc2ccccc2)=N[N+]1=Cc1ccc(-c2ccccc2)s1 — IC50 (cell growth or viability): 254 µM
Cc1cn(CC(=O)N[C@@H](Cc2ccccc2)C(=O)N[C@@H](Cc2ccccc2)C(=O)O)c(=O)[nH]c1=O — IC50: > 500 µM
CO[C@@H]1[C@@H](O[C@@H]2O[C@H](C)[C@@H](O[C@H]3C[C@@](C)(O)[C@@H](OC(=O)/C=C/c4ccc(C(F)(F)F)cc4)[C@H](C)O3)[C@H](N(C)C)[C@H]2O)[C@@H](CC=O)C[C@@H](C)[C@@H](O[C@H]2CC[C@H](N(C)C)[C@@H](C)O2)/C=C/C=C/C[C@@H](C)OC(=O)C[C@H]1O — IC50 (cell growth or viability, CCK-8; 72 h): 1.3 µM
O=C(c1cc(Cl)c(Cl)[nH]1)c1ccccc1O — IC50 (cell growth or viability, resazurin; 24 h): 13 µg/mL
CCCC/C=N/NC(=O)c1cc2cc(Nc3nccc(-c4cccnc4)n3)ccc2[nH]1 — IC50 (cell growth or viability, MTT; 48 h): > 20 µM
Cc1c(C(=O)NNC(=S)Nc2ccc(Cl)cc2)nnn1Cc1nc2ccccc2[nH]1 — IC50 (48 h): 3.87 ± 0.2 µM
COc1cc(CN2CCN(c3ccc(C)cc3)CC2)c2cc3[n+](cc2c1O)CCc1cc2c(cc1-3)OCO2 — IC50 (cell growth or viability, SRB; 48 h): 4.35 µg/mL
O=C(CCCCCCNC(=O)c1cc(C(=O)c2ccccc2)cn1Cc1ccc(F)cc1)NO — IC50 (cell growth or viability, resazurin; 72 h): 2 µM
CC(C)c1ccc(C[C@H](C)C(=O)N[C@@H]2O[C@H](CO)[C@@H](O)[C@H](O)[C@H]2O)cc1 — IC50 (cell growth or viability; 96 h): > 250 µM
CC=C(C)C(=O)OC1C(O)C2(CO)C(CC1(C)C)C1=CCC3C4(C)CCC(O)C(C)(CO)C4CCC3(C)C1(C)C(O)C2O (centres unmarked) — IC50 (cell growth or viability, CCK-8; 48 h): 45.1 µM
O=C(/C=C/c1ccc2c(c1)C(=O)N(CCCc1ccccc1)CC2)NO — IC50 (cell growth or viability, SRB; 72 h): 2.53 µM
CCn1cc(/C=C/c2sc3ccccc3[n+]2CC)c2ccccc21 — IC50 (cell growth or viability, MTT; 24 h): 5.41 µM
CC1=CC(c2cccc(C(F)(F)F)c2)=[O+][Ru-]([Cl])[O]1.Cc1c(C)c(C)c(C)c(C)c1C — IC50 (cell growth or viability, MTT): 6.1 µM
CN1CCCNC(=O)c2cccc(c2)C(=O)NCCCN(C)CCCNc2cccc3c2C(=O)c2cccc(c2C3=O)NCCC1 — IC50 (cell growth or viability, CCK-8; 48 h): 0.3 µM
CC(C)(C)c1cc2c(O)c(c1)Cc1cc(C(C)(C)C)cc(c1OCC(=O)Nc1cccc3cccnc13)Cc1cc(C(C)(C)C)cc(c1O)Cc1cc(C(C)(C)C)cc(c1OCC(=O)Nc1cccc3cccnc13)COC2 — IC50 (cell growth or viability, MTT; 72 h): 7.3 µM
O=C(Cc1ccc2ccccc2c1)N[C@H](Cc1ccccc1)C(=O)N[C@H](Cc1ccc(O)cc1)C(=O)N[C@H](Cc1ccccc1)C(=O)N[C@H](Cc1ccc(OP(=O)(O)O)cc1)C(=O)O — IC50 (cell growth or viability, MTT): 132 µg/mL
Cc1cc(N2CCN(C(=O)CN3CCN(C)CC3)CC2)n2ncnc2n1 — IC50 (cell growth or viability, MTT): 52.4 µM
O=C(Cc1ccc(-c2ccc(OCCN3CCOCC3)cc2)cn1)NCc1cccnc1 — IC50 (cell growth or viability, CCK-8; 48 h): > 4 µM
CC[P+](c1cc(C)cc(C)c1)(c1cc(C)cc(C)c1)c1cc(C)cc(C)c1 — IC50 (cell growth or viability, resazurin; 72 h): 0.8 µM
S=c1n(-c2ccccc2)c2c3ccccc3nc3[n+]2[n]1[Ir-3]12([S]3)([c]3ccc4ccccc4c3-c3sc4ccccc4[n+]31)[c]1ccc3ccccc3c1-c1sc3ccccc3[n+]12 — IC50 (cell viability, MTT; irradiation 450 nm, 15.5 mW/cm^2, 15 min): 0.005 ± 0.001 µM

Some of these lines once more:
C=C1C(=O)OC2C=C(C)CCC=C(C(=O)OC(C)C(C)(O)C(=O)OC3C(OC(C)=O)C(C(=O)OC)=CCCC(C)=CC4OC(=O)C(=C)C43)CC(OC(=O)C(C)=CC)C12 (centres unmarked) — IC50 (cell growth or viability; 48 h): 1.69 µM
CO[C@@H]1[C@@H](O[C@@H]2O[C@H](C)[C@@H](O[C@H]3C[C@@](C)(O)[C@@H](OC(=O)/C=C/c4ccc(C(F)(F)F)cc4)[C@H](C)O3)[C@H](N(C)C)[C@H]2O)[C@@H](CC=O)C[C@@H](C)[C@@H](O[C@H]2CC[C@H](N(C)C)[C@@H](C)O2)/C=C/C=C/C[C@@H](C)OC(=O)C[C@H]1O — IC50 (cell growth or viability, CCK-8; 72 h): 1.3 µM
CO[C@@H]1[C@@H](O[C@@H]2O[C@H](C)[C@@H](O[C@H]3C[C@@](C)(O)[C@@H](OC(=O)Cc4ccc(C(C)(C)C)cc4)[C@H](C)O3)[C@H](N(C)C)[C@H]2O)[C@@H](CC=O)C[C@@H](C)[C@@H](O[C@H]2CC[C@H](N(C)C)[C@@H](C)O2)/C=C/C=C/C[C@@H](C)OC(=O)C[C@H]1O — IC50 (cell growth or viability, CCK-8; 72 h): 2.05 µM
CCCCCCCCCCCCCCCCOc1c(O)cc(C(=O)O[C@@H]2Cc3c(O)cc(O)cc3O[C@@H]2c2cc(O)c(O)c(O)c2)cc1O — IC50 (cell growth or viability, CCK-8; 24 h): 105 µM
O=C(Cc1ccc(-c2ccc(OCCN3CCOCC3)cc2)cn1)NCc1cccnc1 — IC50 (cell growth or viability, CCK-8; 48 h): > 4 µM
COc1cc(CN2CCN(c3ccccc3F)CC2)c2cc3[n+](cc2c1O)CCc1cc2c(cc1-3)OCO2 — IC50 (cell growth or viability, SRB; 48 h): 5.88 µg/mL
C[C@@H]1CC[C@@H]([C@@](C)(O)Cn2ccnc2)[C@H](OCc2ccccc2)C1 — IC50 (cell growth or viability, MTT; 72 h): 23.2 µM
